Experimental data gathered from unrelated publications.
Each numbered part is a random draw from the data of one study; scales do not carry over between parts. Substitutions count along the parent as printed.

Block 1 — method: RNA Bind-n-Seq; molecule type: RNA; medium: in vitro; concentration: 365 nM; relative to: no-protein control; reading: higher = stronger binding; endpoint: RBNS enrichment (R)
Target: RNA binding protein fox-1 homolog 2, RRM domain, GST-SBP tag (RBFOX2, Homo sapiens, UniProt O43251-10, residues 100-194)
Setting: natural RNA segment, single round, ends assumed
Target sequence (chain): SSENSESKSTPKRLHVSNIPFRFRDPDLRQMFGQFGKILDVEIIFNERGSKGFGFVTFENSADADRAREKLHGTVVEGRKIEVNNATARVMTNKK
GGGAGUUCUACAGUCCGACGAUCCUAAUGUCAUGGCUGUGGGAUAUUAGAGAAGUGGGUUUAUGACUCUGAAGACCAGCAGACACCAGACUUUAAAAGUGCUUAAAUUGGAAUUUGGAAACUACAGUAAAGAAUGGAAUUCUCGGGUGCCAA: 0.609
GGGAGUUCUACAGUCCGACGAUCGGAGAGUUUUGAAUGUGCAUAUGCUGACGCCUGAGAACAGACCCAGGUACCCGUGGCUGAGCUGAGCUUCCUCUGCUUUCCCUAGGCCUGGCCUCUGCAGGGAACUGCAGUGGAAUUCUCGGGUGCCAA: 10.6
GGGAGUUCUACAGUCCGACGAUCAAUAAGAUUAAUGACCUGAAUUGAAAGAGAAUUUGGAGCCAGGAUGGGUCUCCAUUCUGUGUGGCACCUUGAUUGGAAAAUAAUAUCCAUGCGUUUCUUCCACUGAGUCUUGGAAUUCUCGGGUGCCAA: 0.517
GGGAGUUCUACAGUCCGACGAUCUGGAGUCAAAACACUUGUAAUUUUGUAUCUUGAUGUCUUUGUUAAGACUGCUGAAGAAUUAUUUUUUUUCUUUUAUAAUAAGGAAUAAACCCCACCUUUAUUCCUUCAUUUGGAAUUCUCGGGUGCCAA: 0.502
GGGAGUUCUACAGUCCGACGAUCUAAAACAAGUGAAUAGAUCCAAGUGAAUAAAGUAAUUUCUCCAUUGACUUUUUUUUUUAACUGCUAGUCAUGUGGCUGUAACUAUGGGUUGCUCUUUAUUAUUCCCUGAUUGGAAUUCUCGGGUGCCAA: 0.768
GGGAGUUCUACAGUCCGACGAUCCAUGUACCCUGCCGACUGACUGAGGCACACAACUUCCCUGGCUUAUCAGAAGAUUCAUUUACAGGGAGACAAGCUUGCUGCCCUAAUUCCCAGCUCUCCCCAGUGUCCAGUGGAAUUCUCGGGUGCCAA: 0.438
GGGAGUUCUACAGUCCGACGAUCCGGCCACAGCCCCCUCCCUUUAGGCUAAAAUUCUCACCCAAGCUUUCCCACGGGAAGCUCUAGGACAGGAGGAAGGCGGGAAGCCCUGGGCAGGAACCACUCUGGCUGUCUGGAAUUCUCGGGUGCCAA: 0.419
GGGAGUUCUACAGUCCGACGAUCUGUGCUGUACACCCCGUUAGUCCCUGAUCCCAACCUUCUCCCUCCUGCCAGCACACCGAUGCACACACCGGAAGUGGCGAGCCCAAGCCCUGGGGACAGGUGUAGGGAGAUGGAAUUCUCGGGUGCCAA: 1.22
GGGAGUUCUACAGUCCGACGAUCGUUGCAACUCCCAACCCCGAAUCUUUGCAGCCGUUCGGCCCUGAAAGAUGCCCUAUCCAUGAGAUGCCUUUUCAUCUGCAAACUCUGCAAAAUGUGUCUCAUGUUUCGCAUGGAAUUCUCGGGUGCCAA: 0.602
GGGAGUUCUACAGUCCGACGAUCAUAAUGCUAAUGAUUGUACUUAGUACAUUUUUAUACUUUUAUGAUAUUUUACUGAUUGGAAAUGUCAUCCUUUAUUAAAAAUAAACAUGGUUUUCCAUAGUUGCCUGCCAUGGAAUUCUCGGGUGCCAA: 0.685
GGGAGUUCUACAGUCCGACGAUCCCCACAGUGGGUUUGGCUGAUUGUAGCCCUGGGCUGUUUUGCCAUGGAACUCUCCAGUGUUCCUAUAAAAUAGUAGUUCCAGCUAAAUAAACCUACUGUACUCAGUGCUUUGGAAUUCUCGGGUGCCAA: 0.281
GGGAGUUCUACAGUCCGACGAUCUGUUAGUUACCACGAUGGUGUUUAAAUCAACACCCUAGCACGCUACCUGUCGGCCUGUUGGUGUCUGGCCUAUGUGAACCCUUGAAUGAUUCUUCUCGUUUGAAAGAUGAUGGAAUUCUCGGGUGCCAA: 0.249

Block 2 — method: RNA Bind-n-Seq; molecule type: RNA; medium: in vitro; concentration: 1 µM; setting: whole 134-nt RNA, ends assumed; with: 150 mM KCl; relative to: input library; reading: higher = stronger binding; endpoint: log2 enrichment
Target: Ras GTPase-activating protein-binding protein 1, RRM domain (G3BP1, Homo sapiens, UniProt Q13283)
Chain of UniProt Q13283 (whole entry, looked up): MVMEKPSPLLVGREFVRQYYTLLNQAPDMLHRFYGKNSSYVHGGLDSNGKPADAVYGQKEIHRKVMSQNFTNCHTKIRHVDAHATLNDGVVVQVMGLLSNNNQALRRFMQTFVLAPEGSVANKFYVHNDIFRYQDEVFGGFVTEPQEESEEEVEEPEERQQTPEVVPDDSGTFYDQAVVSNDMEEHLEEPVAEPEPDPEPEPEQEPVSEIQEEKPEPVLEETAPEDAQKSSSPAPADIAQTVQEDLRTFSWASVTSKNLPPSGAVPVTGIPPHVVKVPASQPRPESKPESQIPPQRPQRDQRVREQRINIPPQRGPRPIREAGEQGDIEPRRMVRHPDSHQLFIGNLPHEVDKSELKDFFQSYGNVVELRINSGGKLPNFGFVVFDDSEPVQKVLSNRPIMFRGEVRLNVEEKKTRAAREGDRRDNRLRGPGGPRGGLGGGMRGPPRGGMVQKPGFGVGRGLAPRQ
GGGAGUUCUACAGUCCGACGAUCACCAUGCAGGUGGGCAUCUUUGGGAAGUGGGGCAAGGGGGGGAUAGGGAGGGGGGAAACACUUUGGGAACAGGUGGUCCCAGGUCGUUUCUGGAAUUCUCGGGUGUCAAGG: -0.48
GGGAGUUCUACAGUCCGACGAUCAGUCCUGUGCUACACAUCGUAUGUACCGAAUCGGAAAAAGGUUUUUGGUUUUUUUGGAAAGUAUUAUGUUACGCCGUUCGGAUCUGCACUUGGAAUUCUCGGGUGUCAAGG: -0.343
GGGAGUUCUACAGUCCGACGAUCGGCACAGGUGCCCGACCAUACACUGGGAAAGUUGGUGCUGAGGAUGCCGAUGGGAUUGACAUGGCCUACCGGGUGCUGGCUGACCACGCUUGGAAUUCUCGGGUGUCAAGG: -0.371
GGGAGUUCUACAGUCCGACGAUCCAAGUCCUGUGCUACACAUCGUAUGUACCGAAUCGGGAGGGAAAGGGUUUUUGGGAAAGUAUUAUGUUACGCCGUUCGGAUCUGCACUUCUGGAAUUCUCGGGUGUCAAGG: 0.766
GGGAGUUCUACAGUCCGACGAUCCAAGUCCUGUGCUACACAUCGUAUGUACCGAAUCGGAAAAAAAGGAAAGGUUUGGAAAGUAUUAUGUUACGCCGUUCGGAUCUGCACUUCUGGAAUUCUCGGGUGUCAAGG: -0.186
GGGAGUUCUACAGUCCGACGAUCCAAGUCCUGUGCUACACAUCGUAUGUACCGAAUCGGGGCCCCGGCCCCGGCCCCGGAAAGUAUUAUGUUACGCCGUUCGGAUCUGCACUUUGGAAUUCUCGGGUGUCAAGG: -0.756
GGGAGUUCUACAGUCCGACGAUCUCCUGUGCUACACAUCGUAUGUACCGAAUCGGGGCCCCCCGGGCCCCCCGGCCCCCCGGGAAAGUAUUAUGUUACGCCGUUCGGAUCUGCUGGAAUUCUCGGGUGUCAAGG: -0.3
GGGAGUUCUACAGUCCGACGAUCCACAGACAACACGCACCCACACAGACACAGAGGGAAGGGGUUGGAAAGGGGACAGGGUGCACAGCAGGGCGGGGUAGGACCCCAGCCCCUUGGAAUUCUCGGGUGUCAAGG: 0.0308
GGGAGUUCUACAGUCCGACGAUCCUCAAGUCCUGUGCUACACAUCGUAUGUACCGAAUCGGUUUUUUUGGAGGAGGAAAGUAUUAUGUUACGCCGUUCGGAUCUGCACUUCCAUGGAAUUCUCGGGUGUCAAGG: -0.125
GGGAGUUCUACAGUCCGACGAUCACCAUGCAGGUGGGCAUCUUUGGGAAGUGGGGCAAGGGGGGGAUAGGGAGGGGGGUAACACUUUGGGAACAGGUGGUCCCUGGUCGUUUCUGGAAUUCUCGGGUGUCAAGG: 0.639
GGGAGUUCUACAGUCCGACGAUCAGUCCUGUGCUACACAUCGUAUGUACCGAAUCAAAUUUUUAAACCCAAAUUUUUAAAAAAGUAUUAUGUUACGCCGUUCGGAUCUGCACUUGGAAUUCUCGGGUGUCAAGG: -0.325
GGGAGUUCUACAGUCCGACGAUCACUGGACCAGAUUGUUGAAAAAGGAAGACCAGCUCCUGGCUUCCAUCAUGGCGAUGGACCGGGAAAUGCAGUUCAAGAAAUCAUGAUUCCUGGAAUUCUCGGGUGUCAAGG: -0.106

Block 3 — method: protein binding microarray; molecule type: double-stranded DNA, one strand shown; medium: in vitro; concentration: not given; relative to: not given; reading: higher = stronger binding; endpoint: E-score
Target: Histone acetyltransferase KAT6A, winged helix 1, GST fusion (KAT6A, Homo sapiens, UniProt Q92794, residues 1-85)
Setting: 8-mer, flanks averaged, mean of 2 arrays, mostly near background
Target sequence (chain): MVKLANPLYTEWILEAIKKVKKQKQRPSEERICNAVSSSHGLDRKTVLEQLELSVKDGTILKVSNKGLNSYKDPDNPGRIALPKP
ACTTTGCA: -0.342
AACGTACA: -0.164
ATTCACCA: -0.193
CCCCTTGC: -0.162
CAGGACAC: -0.0657
GCATTGGC: 0.0766
GGGGACGA: 0.114
TCGTGACA: -0.165
CCGTACCC: 0.342
AGCTCGCG: 0.176
GGTTCCCA: -0.178
AATTGGAG: -0.215
CCTCCTAG: -0.151
CGTCAACG: 0.086
GAAGGATA: -0.093
CCTACCAC: -0.0606
TATTTAAA: -0.0605
CACCAGGG: -0.169
GTTGGTAA: 0.0183
AAGTTTTC: -0.19
ACCGGATG: 0.0497
AATTCAGC: -0.0694
AATTTAGC: 0.0146
GACTCGAC: -0.0926
ATTGATGG: -0.2

Block 4 — method: DHFR PCA, deep sequencing; medium: yeast; with: (+)-ABA 200 µM; relative to: wild-type fitted maximum; reading: higher = stronger binding; endpoint: relative binding score
Target: ABI1, truncated, D143A, DHFR fusion (Arabidopsis thaliana)
Setting: methotrexate growth selection, single substitutions
Starting sequence: PYL1, truncated, DHFR fusion (Arabidopsis thaliana); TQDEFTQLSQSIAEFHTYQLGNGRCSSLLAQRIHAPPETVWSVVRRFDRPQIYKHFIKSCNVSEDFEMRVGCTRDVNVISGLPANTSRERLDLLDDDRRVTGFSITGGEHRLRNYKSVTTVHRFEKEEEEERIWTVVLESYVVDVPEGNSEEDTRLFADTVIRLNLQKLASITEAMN; partner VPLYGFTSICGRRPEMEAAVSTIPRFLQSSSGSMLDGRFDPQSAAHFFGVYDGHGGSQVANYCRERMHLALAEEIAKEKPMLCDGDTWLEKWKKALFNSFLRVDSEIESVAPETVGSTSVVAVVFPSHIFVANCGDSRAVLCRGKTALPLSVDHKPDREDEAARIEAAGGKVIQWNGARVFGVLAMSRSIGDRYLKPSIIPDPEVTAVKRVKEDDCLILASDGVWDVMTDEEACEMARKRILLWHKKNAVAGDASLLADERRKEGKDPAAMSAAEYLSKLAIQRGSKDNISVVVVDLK
T1W: 88.3%
C60N: 37.7%
Q2N: 90.7%
F15A: 53.3%
P83R: 5.37%
L28R: 89.1%
H122V: 44.2%
P146S: 62.2%
E67K: 104%
F103G: -10.3%
R46C: 88.2%
R69V: 101%

Block 5 — target: CCND3, cyclin fold, Cln2 fusion (human); method: yeast growth competition, sequencing; medium: yeast; setting: weak parent motif; relative to: not given; reading: higher = stronger binding; endpoint: normalised enrichment score
Starting sequence: RB1 docking peptide (human); PKPLKKLRFDIEG
D10L: 0.25
G13P: 0.139
K5D: 0.0866
R8K: 0.108
I11Q: 0.0689
P3T: 0.0915
P3E: 0.196
K2F: 0.127
P1H: 0.148
K5S: 0.116
K6T: 0.091
K2S: 0.0885
P3I: 0.084
K5G: 0.124
E12N: 0.223
D10Y: 0.249
G13F: 0.12
L4A: 0.172

A few entries again (block 2):
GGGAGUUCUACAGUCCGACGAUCUCCUGUGCUACACAUCGUAUGUACCGAAUCGGGGCCCCCCGGGCCCCCCGGCCCCCCGGGAAAGUAUUAUGUUACGCCGUUCGGAUCUGCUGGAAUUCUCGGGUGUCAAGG: -0.3
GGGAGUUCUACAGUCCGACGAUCGGCACAGGUGCCCGACCAUACACUGGGAAAGUUGGUGCUGAGGAUGCCGAUGGGAUUGACAUGGCCUACCGGGUGCUGGCUGACCACGCUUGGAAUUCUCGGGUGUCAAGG: -0.371
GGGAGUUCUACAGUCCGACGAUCCAAGUCCUGUGCUACACAUCGUAUGUACCGAAUCGGGAGGGAAAGGGUUUUUGGGAAAGUAUUAUGUUACGCCGUUCGGAUCUGCACUUCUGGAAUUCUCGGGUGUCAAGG: 0.766
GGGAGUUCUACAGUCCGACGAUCACCAUGCAGGUGGGCAUCUUUGGGAAGUGGGGCAAGGGGGGGAUAGGGAGGGGGGAAACACUUUGGGAACAGGUGGUCCCAGGUCGUUUCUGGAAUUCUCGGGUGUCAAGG: -0.48
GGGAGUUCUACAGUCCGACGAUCCUCAAGUCCUGUGCUACACAUCGUAUGUACCGAAUCGGUUUUUUUGGAGGAGGAAAGUAUUAUGUUACGCCGUUCGGAUCUGCACUUCCAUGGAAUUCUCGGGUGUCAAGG: -0.125
